Results gathered from unrelated publications.
Each line is one published result; not all experiments were run side by side. Several values in a cell are separate wells, animals, samples, runs or records. ± marks the error that the study gave. ≈ marks a conversion by molar mass, not a printed value.

| SMILES | assay | system | conditions | scale | measurement | value |
| --- | --- | --- | --- | --- | --- | --- |
| CN(Cc1ccccc1)C(=O)CN1CCN(CC(=O)N(C)Cc2ccccc2)CCN(Cc2cccc(C(=O)[O-])n2)CC1.[44Sc+3] |  | BALB/c mouse, urine | intravenous, 1 h |  | uptake | 561 ± 317 %ID/g |
| CC(C)(O)c1ccc(N2Cc3c(ccnc3-c3ccc(F)cc3OCC(F)(F)F)C2=O)cc1 |  | male C57BL/6 mouse, plasma | oral, 3 mg/kg, 6 h |  | concentration | 910 ng/mL |
| CC[C@H](C)[C@@H]1NC(=O)[C@H](Cc2ccc(O)cc2)NC(=O)CCCSC[C@@H](C(=O)N(CC(=O)N[C@@H](CC(C)C)C(=O)NCC(N)=O)Cc2ccc(F)cc2)NC(=O)[C@H](CC(N)=O)NC(=O)[C@H](CCC(N)=O)NC1=O |  | human | intranasal, 400 µg single dose |  | severe adverse events | 0% |
| CC(C)(O)c1ncc([S@](N)(=O)=NC(=O)Nc2c3c(cc4c2CCC4)CCC3)s1 | measured: psychiatric disorders | healthy human | oral, 3 mg, CS formulation |  | subjects with TEAEs | 17% |
| O=c1c2ccccc2[se]n1CCCCCCn1[se]c2ccccc2c1=O | shake-flask, RP-HPLC | 10% PEG6000 solution | 24 h, 25 °C |  | solubility | 6 ± 1 µg/mL (≈ 12.5 µM) |
| CC(=O)N([O-])CCCCCNC(=O)CCC(=O)N([O-])CCCCCNC(=O)CCC(=O)N([O-])CCCCCN.[89Zr+4] | radio-TLC | aqueous buffer | 1 d, pH 8.5, 37 °C, 89Zr-labelled complex, together with: DTPA 100-fold excess |  | intact complex | 100% |
| COc1cccc(OC)c1-c1cc(C(=O)NC2(C(=O)O)C3CC4CC(C3)CC2C4)nn1-c1ccc(C(=O)N(C)CCOCCN(C)C(=O)[C@H](CCCCNC(=O)[C@H](CC(C)C)NC(=O)C2OC2C(=O)O)NC(=O)CN2CCN(CC(=O)[O-])CCN(CC(=O)[O-])CCN(CC(=O)[O-])CC2)cc1C(C)C.[177Lu+3] (mixture of isomers) |  | mouse, HT-29 xenograft, spleen | 24 h post injection |  | tissue uptake | 0.81 %ID/g |
| CN(Cc1ccccc1)C(=O)CN1CCN(CC(=O)[O-])CCN(Cc2cccc(C(=O)[O-])n2)CC1.[44Sc+3] |  | mouse, brain | intravenous, 1 h |  | tracer uptake | 0.06 %ID/g |
| C[C@]12C[C@H](c3ccc(S(C)(=O)=O)cc3)[C@@H]3C4=C(CC[C@H]3[C@@H]1CC[C@@]2(O)C(F)(F)C(F)(F)F)C(=O)[C@H](O)CC4 |  | human, plasma | oral, 5 mg multiple doses, day 28 |  | AUC(0-24 h) | 77.1 ng·h/mL |
| CCC(CC)CNC(=N)NC(=N)NCCCCCCNC(=N)NC(=N)NCC(CC)CC | metabolic stability | rat, liver microsomes | 2 µM |  | microsomal CLint | 37.9 µL/min/mg |
| O=C1CCC(N2Cc3cc(C(=O)O)c(F)cc3C2=O)C(=O)N1 (stereo not drawn) |  | male CD-1 mouse, plasma | intravenous, 1 mg/kg, 30 min |  | concentration | 136 ng/mL |
| CCCCN1C(=O)c2cccc3c(NCCCCN4CCOCC4)ccc(c23)C1=O |  | DMF |  |  | fluorescence lifetime | 10 ns |
| Cc1nn(-c2nc3c(F)cc(F)cc3s2)c(O)c1C(c1ccc(C(F)(F)F)cc1)c1c(C)nn(-c2nc3c(F)cc(F)cc3s2)c1O |  | ICR mouse, plasma | intravenous, 5 mg/kg |  | AUC(0-inf) observed | 122000 ng·h/mL and 39500 ng·h/mL and 48300 ng·h/mL |
| O=C([O-])CN1CCN(CC(=O)[O-])CCN(CC(=O)[O-])CC1.[44Sc+3] |  | mouse, lung | intravenous, 1 h |  | tracer uptake | 0.22 %ID/g |
| Cc1ncsc1-c1ccc(CNC(=O)[C@@H]2C[C@@H](O)CN2C(=O)[C@@H](NC(=O)COCC(C)(COCCOCCOCCNC(=O)C[C@@H]2N=C(c3ccc(Cl)cc3)c3c(sc(C)c3C)-n3c(C)nnc32)COCCOCCOCCNC(=O)C[C@@H]2N=C(c3ccc(Cl)cc3)c3c(sc(C)c3C)-n3c(C)nnc32)C(C)(C)C)cc1 |  | male C57BL/6 mouse, plasma | intravenous, 5 mg/kg, 4 h, single dose |  | concentration | 1390 ng/mL |
| N#C[C@@H]1CC(F)(F)CN1C(=O)CNC(=O)c1ccnc2ccc(OCCCN3CCN(C(=O)CCc4ccc5c(c4)CN4CCN(Cc6cc(CCC(=O)O)ccc6O)CC(=O)[O][Al-]([18F])([O]C(=O)C4)[O]5)CC3)cc12 (stereo partly drawn) | radio-TLC | CD-1 mice, plasma | intravenous, 10 min post-injection |  | radiochemical purity | 94.2 ± 2.2% |
| CN(C(=O)C(C)(C)c1cc(C(F)(F)F)cc(C(F)(F)F)c1)c1cnc(N2C[C@H]3COCCN3C[C@H]2CO)cc1-c1ccc(F)cc1CO |  | pooled human liver microsomes | pH 7.4, substrate depletion |  | Km | 136 nM |
| [2H]C([2H])(N)C([2H])([2H])NC(=O)c1cc(C2CC2)nc2c1cnn2C(C)C |  | female BALB/c mouse, plasma | intraperitoneal, 50 mg/kg, 4 h |  | concentration | 864 ng/mL |
| Cc1[nH]c(=O)c(CNC(=O)c2cc(Cl)c3c(c2C)O[C@@](C)([C@H]2CC[C@H](N(C)C)CC2)O3)c(C)c1O |  | human, plasma | oral, 200 mg, single dose, metabolite of valemetostat, together with: [14C]-valemetostat |  | AUC(0-last) | 12400 ng·h/mL |
| C=CC(=O)Nc1cc(Nc2nccc(-c3cn(C)c4ccccc34)n2)c(OC)cc1N(C)CCNC |  | human, plasma | 270 ng/mL, 2 h, room temperature, high QC level |  | remaining compound | 100% |

| SMILES | assay | system | conditions | scale | measurement | value |
| --- | --- | --- | --- | --- | --- | --- |
| C=C(NC(=O)c1csc(-c2nc3c(cc2O)-c2nc(cs2)C(=O)NC(C(C)O)C(=O)NC(=C(C)OC)c2nc(cs2)C(=O)NC2c4nc(cs4)C(=O)NC(COC(=O)c4c5c6c(cccc6n4O)COC(=O)C(OC4CC(C)(O)C(N(C)C)C(C)O4)C2OC5)c2nc-3cs2)n1)C(N)=O (stereo not drawn) |  | ICR mice, Streptococcus pneumoniae ATCC 49169 infected, immunocompromised, blood | intravenous, 16 mg/kg/day once daily |  | half-life | 379 min |
| Cc1cc(Cl)cc(S(C)(=O)=NC#N)c1NC(=O)c1cc(Br)nn1-c1ncccc1Cl (stereo not drawn) | potentiometric |  |  |  | logP | 4.01 |
| COc1ccc2c(c1)C(C)(C)C(/C=C/C1=C(Oc3ccc(C(=O)NCCCCOc4cc(CN(Cc5ccccn5)Cc5ccccn5)cc(CN(Cc5ccccn5)Cc5ccccn5)c4)cc3)C(=C/C=C3/N(CCCCS(=O)(=O)[O-])c4ccc(OC)cc4C3(C)C)CCC1)=[N+]2CCCCS(=O)(=O)[O-].O=[N+]([O-])[O-].O=[N+]([O-])[O-].[99Tc+].[C-]#[O+].[C-]#[O+].[C-]#[O+].[Zn+2] |  | mouse, lung | 12 h |  | tracer uptake | 1.68 %ID/g |
| CC[C@H](C)[C@H](NC(=O)[C@H](Cc1ccccc1)NC(=O)[C@H](CCC(=O)O)NC(=O)[C@H](CCCCN)NC(=O)[C@H](C)NC(=O)[C@H](C)NC(=O)[C@H](CCC(N)=O)NC(=O)CNC(=O)[C@H](CCC(=O)O)NC(=O)[C@H](CC(C)C)NC(=O)[C@H](Cc1ccc(O)cc1)NC(=O)[C@H](CO)NC(=O)[C@H](CO)NC(=O)[C@@H](NC(=O)[C@H](CC(=O)O)NC(=O)[C@H](CO)NC(=O)[C@@H](NC(=O)[C@H](Cc1ccccc1)NC(=O)[C@@H](NC(=O)CNC(=O)[C@H](CCC(=O)O)NC(=O)[C@H](C)NC(=O)[C@@H](N)Cc1c[nH]cn1)[C@@H](C)O)[C@@H](C)O)C(C)C)C(=O)N[C@@H](C)C(=O)N[C@@H](Cc1c[nH]c2ccccc12)C(=O)N[C@@H](CC(C)C)C(=O)N[C@H](C(=O)N[C@@H](CCCCN)C(=O)NCC(=O)N[C@@H](CCCNC(=N)N)C(N)=O)C(C)C |  | human serum | 37 °C |  | serum stability | < 24 h |
| N#C[C@@H]1CCCN1C(=O)CNC(=O)c1ccnc2ccc(OCCCN3CCN(C(=O)CCc4ccc5c(c4)CN4CCN(Cc6cc(CCC(=O)O)ccc6O)CC(=O)[O][Al-]([18F])([O]C(=O)C4)[O]5)CC3)cc12 (stereo partly drawn) |  | BALB/c nude mice, U-87 MG tumour | 120 min post-injection | reference: tumour over bone | tumour-to-organ ratio | 1.49 ± 0.45 |
| COc1ccc(Nc2nc(Nc3ccc(OCCOCCOCC[18F])cc3)ncc2Br)cc1 |  | ICR mice, S180 tumour | intravenous, 370 kBq, 120 min | reference: tumour over muscle | uptake ratio | 1.46 |
| O=C(Nc1cnccc1-c1ccc([18F])cc1)c1ccnc(NC(=O)C2CC2)c1 |  | mice, transgenic, GSK-3β, early-stage, thalamus | intravenous, dose not given, 120 min |  | SUV | 0.03 |
| COc1cccc(OC)c1-c1cc(C(=O)NC2(C(=O)O)C3CC4CC(C3)CC2C4)nn1-c1ccc(C(=O)NCCNC(=O)[C@H](CCCCNC(=O)[C@H](CC(C)C)NC(=O)C2OC2C(=O)O)NC(=O)CN2CCN(CC(=O)[O-])CCN(CC(=O)[O-])CCN(CC(=O)[O-])CC2)cc1C(C)C.[177Lu+3] (mixture of isomers) |  | mouse, HT-29 xenograft | 4 h post injection, biodistribution | reference: tumour over muscle uptake | tumour-to-muscle ratio | 15 |
| CCC1CNC(CC)CN(C(C(=O)[O-])c2ccc(C(=O)[O-])cc2)C(CC)CN(CC(=O)[O-])C(CC)CN1.[Mn+2] (stereo not drawn) | ICP-MS | BALB/c mouse, heart | intravenous, 0.05 mmol/kg, 5 min, without anaesthesia |  | Mn content | 1.86 ± 0.09 µg/g |
| O=C(Nc1cnccc1-c1ccc([18F])nc1)c1ccnc(NC(=O)C2CC2)c1 |  | FVB/NJ mice, both sexes, brain | intravenous, 20 min, median, no P-gp inhibitor |  | SUV | 0.085 |
| CCCC[C@H](OC(C)=O)c1ccccc1C(=O)O |  | Sprague-Dawley rats, both sexes, whole blood | intravenous, 1.25 mg/kg single dose |  | AUC(0-t) | 1010 ± 323 ng·h/mL |
| CN(Cc1ccccc1)C(=O)CN1CCN(CC(=O)[O-])CCN(CC(=O)[O-])CC1.[44Sc+3] |  | mouse, stomach | intravenous, 1 h |  | tracer uptake | 1.06 %ID/g |
| CN([O-])C(=O)CN1CCN(CC(=O)N(C)[O-])CCN(Cc2ccccn2)CC1.[89Zr+4] | radio-TLC | human serum | 2 days, run 1 |  | intact complex | 94.1% |
| C/C(N)=N/C(=N\S(=O)(=O)c1ccc(C(F)(F)F)cc1)N1C[C@H](c2ccccc2)C(c2ccc(Cl)cc2)=N1 |  | male C57BL/6 mouse, brain | oral, 10 mg/kg |  | Cmax | 26.6 ng/mL |
| Cc1cc(-c2ccc(C(=O)[C@@H]3CCCC[C@H]3C(=O)Nc3cnn4c3C(=O)NCC4)cc2)[nH]n1 |  | human, urine | oral, 200 mg, 168-192 h | reference: dose | recovery of radioactivity per interval | < 0.01% |
| O=C([O-])CN1CCN(CC(=O)[O-])CCN(Cc2cccc(C(=O)[O-])n2)CC1.[177Lu+3] |  | mouse, bone | intravenous, 1 h |  | tracer uptake | 0.51 %ID/g |
| CC[C@H](C)/C=C/C=C/C=C/C(O)=C/C(=O)C(F)(F)F |  | C57BL/6 mice, female, plasma | oral, 25 mg/kg |  | MRT | 2.2 h |
| CN(Cc1ccccc1)C(=O)CN1CCN(CC(=O)[O-])CCN(CC(=O)N(C)Cc2ccccc2)CC1.[18F-].[Sc+3] |  | mouse, spleen | intravenous, 1 h |  | tracer uptake | 0.15 %ID/g |
| CC(C)c1cnc(-c2cc(Cl)ccc2F)cc1Nc1ccncc1C(=O)NC(CO)CO |  | female C57BL/6 mice, plasma | oral, 30 mg/kg twice daily, day 1, MC-38 tumour-bearing, tau 8 h |  | unbound AUC(0-tau) | 0.343 µM·h |

A few entries again:
| SMILES | assay | system | conditions | scale | measurement | value |
| --- | --- | --- | --- | --- | --- | --- |
| O=C([O-])CN1CCN(CC(=O)[O-])CCN(CC(=O)[O-])CC1.[44Sc+3] |  | mouse, lung | intravenous, 1 h |  | tracer uptake | 0.22 %ID/g |
| CCCC[C@H](OC(C)=O)c1ccccc1C(=O)O |  | Sprague-Dawley rats, both sexes, whole blood | intravenous, 1.25 mg/kg single dose |  | AUC(0-t) | 1010 ± 323 ng·h/mL |
| O=C([O-])CN1CCN(CC(=O)[O-])CCN(Cc2cccc(C(=O)[O-])n2)CC1.[177Lu+3] |  | mouse, bone | intravenous, 1 h |  | tracer uptake | 0.51 %ID/g |
| CCCCN1C(=O)c2cccc3c(NCCCCN4CCOCC4)ccc(c23)C1=O |  | DMF |  |  | fluorescence lifetime | 10 ns |
| CC(C)(O)c1ncc([S@](N)(=O)=NC(=O)Nc2c3c(cc4c2CCC4)CCC3)s1 | measured: psychiatric disorders | healthy human | oral, 3 mg, CS formulation |  | subjects with TEAEs | 17% |
